{"data": "Measured values collected from several papers", "note": "Each line is one published result; not all experiments were run side by side. “And” joins repeats or separate records; there may be more than shown. Numbers after ± are the reported error."}
{"Structure (SMILES)": "C/C(N)=N/C(=N\\S(=O)(=O)c1ccc(C(F)(F)F)cc1)N1C[C@H](c2ccccc2)C(c2ccc(Cl)cc2)=N1", "system": "C57BL/6 mouse male, adipose tissue", "setting": "intravenous, 10 mg/kg", "Tmax": "120 min"}
{"Structure (SMILES)": "O=C(NS(=O)(=O)c1cccs1)c1cc2ccccc2n1Cc1ccc(Br)c2ccccc12", "system": "mouse, plasma", "setting": "oral, 2 mg/kg", "Tmax": "25.2 min"}
{"Structure (SMILES)": "Cc1ccc(=O)n(-c2ccc(O)cc2)c1", "system": "BALB/c mouse, plasma", "setting": "oral, 1.0 mmol/kg", "Tmax": "30 min"}
{"Structure (SMILES)": "Cc1[nH]nc2c1N=C(c1ccccc1Cl)c1cnc(N3CCOCC3)cc1N2", "system": "nude mouse HCC1806 xenograft, plasma", "setting": "oral, 10 mg/kg once daily", "Tmax": "60 min"}
{"Structure (SMILES)": "O=S(=O)(N[C@H]1CCC[C@@H](N2c3ccccc3CCc3ccccc32)[C@@H]1O)c1ccc(OC(F)(F)F)cc1", "system": "mouse, plasma", "setting": "oral, 100 mg/kg, suspension", "Tmax": "240 min"}
{"Structure (SMILES)": "Cc1nn(-c2nc3c(F)cc(F)cc3s2)c(O)c1C(c1ccc(C(F)(F)F)cc1)c1c(C)nn(-c2nc3c(F)cc(F)cc3s2)c1O", "system": "ICR mouse, plasma", "setting": "intravenous, 5 mg/kg", "Tmax": "15 min and 45 min and 3 min"}
{"Structure (SMILES)": "CN[C@H](CC(C)C)C(=O)N[C@H]1C(=O)N[C@@H](CC(N)=O)C(=O)N[C@H]2CN[C@H]3C(=O)N[C@H](C(=O)N[C@H](C(=O)NCCCNC(=N)N)c4cc(O)cc(O)c4-c4cc3ccc4O)[C@H](O)c3ccc(c(Cl)c3)Oc3cc2cc(c3O[C@@H]2O[C@H](CO)[C@@H](O)[C@H](O)[C@H]2O[C@H]2C[C@](C)(NCc3ccc(-c4ccc(Cl)cc4)cc3)[C@H](O)[C@H](C)O2)Oc2ccc(cc2Cl)[C@H]1O", "system": "mouse", "setting": "intravenous, 50 mg/kg", "Tmax": "8.4 min"}
{"Structure (SMILES)": "CC[C@H](C)[C@H](NC(=O)[C@H](CC(C)C)NC(=O)[C@H](Cc1c[nH]cn1)NC(=O)[C@H](Cc1c[nH]cn1)NC(=O)[C@H](CC(C)C)NC(=O)[C@H](Cc1c[nH]c2ccccc12)NC(=O)[C@H](Cc1ccccc1)NC(=O)[C@H](CCCNC(=N)N)NC(=O)[C@H](CCCNC(=N)N)NC(=O)[C@H](CCCNC(=N)N)NC(=O)[C@H](CC(C)C)NC(=O)[C@H](CC(=O)O)NC(=O)[C@H](CCC(N)=O)NC(=O)[C@@H](NC(=O)[C@H](CO)NC(=O)[C@H](CCCCN)NC(=O)[C@@H](Cc1c[nH]c2ccccc12)NC(=O)[C@H](CC(C)C)NC(=O)[C@H](CC(=O)O)NC(=O)[C@H](Cc1c[nH]cn1)NC(=O)[C@H](CC(C)C)NC(=O)[C@@H](N)CC(C)C)[C@@H](C)CC)C(=O)N[C@@H](C)C(=O)N[C@@H](CCC(=O)O)C(=O)N[C@H](C(=O)N[C@@H](Cc1c[nH]cn1)C(=O)N[C@H](C(=O)N[C@@H](C)C(=O)N[C@@H](CCC(=O)O)C(=O)N[C@@H](Cc1ccc(O)cc1)C(N)=O)[C@@H](C)O)[C@@H](C)CC", "system": "mouse, blood", "setting": "subcutaneous", "Tmax": "10 min"}
{"Structure (SMILES)": "O=C1CCC(N2Cc3cc(C(=O)O)c(F)cc3C2=O)C(=O)N1 (centres unmarked)", "system": "male CD-1 mouse, plasma", "setting": "oral, 10 mg/kg of parent drug", "Tmax": "54 ± 12 min"}
{"Structure (SMILES)": "Cc1ccc(OCC(=O)N(Cc2cccs2)c2ccn[nH]2)cc1", "system": "male CD-1 mouse, plasma", "setting": "oral, 30 mg/kg", "Tmax": "15 min"}
{"Structure (SMILES)": "CN[C@H](CC(C)C)C(=O)N[C@H]1C(=O)N[C@@H](CC(N)=O)C(=O)N[C@H]2C(=N)N[C@H]3C(=O)N[C@H](C(=O)N[C@H](C(=O)NCCC[N+](C)(C)C)c4cc(O)cc(O)c4-c4cc3ccc4O)[C@H](O)c3ccc(c(Cl)c3)Oc3cc2cc(c3O[C@@H]2O[C@H](CO)[C@@H](O)[C@H](O)[C@H]2O[C@H]2C[C@](C)(NCc3ccc(-c4ccc(Cl)cc4)cc3)[C@H](O)[C@H](C)O2)Oc2ccc(cc2Cl)[C@H]1O", "system": "mouse", "setting": "intravenous, 10 mg/kg", "Tmax": "4.8 min"}
{"note": "Excerpt of the above:"}
{"Structure (SMILES)": "Cc1nn(-c2nc3c(F)cc(F)cc3s2)c(O)c1C(c1ccc(C(F)(F)F)cc1)c1c(C)nn(-c2nc3c(F)cc(F)cc3s2)c1O", "system": "ICR mouse, plasma", "setting": "intravenous, 5 mg/kg", "Tmax": "15 min and 45 min and 3 min"}
{"Structure (SMILES)": "CN[C@H](CC(C)C)C(=O)N[C@H]1C(=O)N[C@@H](CC(N)=O)C(=O)N[C@H]2CN[C@H]3C(=O)N[C@H](C(=O)N[C@H](C(=O)NCCCNC(=N)N)c4cc(O)cc(O)c4-c4cc3ccc4O)[C@H](O)c3ccc(c(Cl)c3)Oc3cc2cc(c3O[C@@H]2O[C@H](CO)[C@@H](O)[C@H](O)[C@H]2O[C@H]2C[C@](C)(NCc3ccc(-c4ccc(Cl)cc4)cc3)[C@H](O)[C@H](C)O2)Oc2ccc(cc2Cl)[C@H]1O", "system": "mouse", "setting": "intravenous, 50 mg/kg", "Tmax": "8.4 min"}
